# Experimental data collected from several papers.
# Compare with care: the assays were run in different laboratories. Values joined by “and” are separate records of one study, mostly repeats; a detail may differ. ± marks the error that the study gave.
# Chain of UniProt Q9UPE1 (whole entry, looked up): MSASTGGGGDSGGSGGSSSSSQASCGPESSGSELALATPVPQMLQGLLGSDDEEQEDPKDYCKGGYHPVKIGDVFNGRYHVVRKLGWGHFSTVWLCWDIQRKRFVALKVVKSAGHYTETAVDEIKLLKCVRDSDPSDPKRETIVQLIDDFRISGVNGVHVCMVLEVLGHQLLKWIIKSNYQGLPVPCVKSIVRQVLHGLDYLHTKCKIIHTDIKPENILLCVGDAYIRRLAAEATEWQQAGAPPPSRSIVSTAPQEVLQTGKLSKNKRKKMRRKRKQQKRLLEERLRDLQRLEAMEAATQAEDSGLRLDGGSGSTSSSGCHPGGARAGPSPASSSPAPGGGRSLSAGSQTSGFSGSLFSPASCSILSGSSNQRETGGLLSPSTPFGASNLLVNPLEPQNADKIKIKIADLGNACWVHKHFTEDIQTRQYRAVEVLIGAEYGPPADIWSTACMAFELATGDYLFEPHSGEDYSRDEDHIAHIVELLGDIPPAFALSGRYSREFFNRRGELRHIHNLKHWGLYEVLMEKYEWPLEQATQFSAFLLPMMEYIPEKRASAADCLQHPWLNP
Compound,tested on,test,system,setting,scale,measurement,value
Cc1ccc(N(O)/N=N/c2ccc(S(=O)(=O)Nc3nccs3)cc2)cc1,,carrageenan-induced paw edema,Wistar rat,"oral, 100 mg/kg, 4 h after carrageenan, together with: carrageenan 1% subplantar",higher = more edema,paw edema volume,4.6 ± 0.52 a.u.
COC1OC(C)C(O)C(OC2OC(C)C(O)C(OC3OC(C)C(O)C(OC4OC(C)C(O)C(OC5OC(C)C(O)C(OC6OC(C)C(O)C(OC7OC(C)C(O)C(OC8OC(C)C(O)C(OC9OC(C)C(O)C(OC%10OC(C)C(O)C(OC%11OC(C)C(O)C(OC%12OC(C)C(O)C(OS(=O)(=O)O)C%12OS(=O)(=O)O)C%11OS(=O)(=O)O)C%10OS(=O)(=O)O)C9OS(=O)(=O)O)C8OS(=O)(=O)O)C7OS(=O)(=O)O)C6OS(=O)(=O)O)C5OS(=O)(=O)O)C4OS(=O)(=O)O)C3OS(=O)(=O)O)C2OS(=O)(=O)O)C1OS(=O)(=O)O (stereo not shown),,,human plasma,128 µg/mL,reference: control,thrombin time prolongation,1 fold
Cc1[nH]nc2c1N=C(c1ccccc1Cl)c1cnc(N3CCOCC3)cc1N2,,,mouse sample BA TNBC PDX,"oral, 15 mg/kg, 120 h, 5 days per week",,tumour growth inhibition,97%
COc1cc(N2CCN(C(=O)C3CCCN3)CC2)ccc1Nc1ncc(Cl)c(Nc2ccccc2P(C)(C)=O)n1 (stereo not shown),,,"nude mice, NCI-H3122 xenograft","oral, 25 mg/kg every two days, day 3",,tumour volume,107 mm3 and 20.4 mm3 and 58.2 mm3 and 61.9 mm3 and 111 mm3
COc1cc2c(NC3CCN(C(C)C)CC3)cc(N3CCOCC3)nc2cc1OCCCN1CCCC1,,"TMT quantitative proteomics, measured: phosphoglycerate mutase 1","5xFAD mice, hippocampus",dose not given,,normalised protein abundance,-0.0129 and 0.00764 and -0.0193 and -0.0437 and -0.00525 and -0.0943 and -0.0775 and -0.0435
Cc1ncsc1-c1ccc(C(C)NC(=O)C2CC(O)CN2C(=O)C(NC(=O)CCCCCCCCCCN2CCCC(Nc3ncc(Cl)c(Nc4ccccc4S(=O)(=O)C(C)C)n3)C2)C(C)(C)C)cc1 (stereo not shown),22Rv1,"RNA-seq, measured: ZNF493 mRNA",,concentration not given,reference: DMSO,log2 fold change,-1.59
COc1ccc(NC(=O)c2ccc3[nH]c(-c4ccc(N(C)C)cc4)nc3c2)cn1,,,"Lewis lung carcinoma, mice, syngeneic graft, subcutaneous","intraperitoneal, 50 mg/kg daily, day 0",,tumour volume,117 mm3 and 111 mm3 and 103 mm3 and 189 mm3
COC1OC(C)C(OS(=O)(=O)O)C(OC2OC(C)C(OS(=O)(=O)O)C(OC3OC(C)C(OS(=O)(=O)O)C(OC4OC(C)C(OS(=O)(=O)O)C(OS(=O)(=O)O)C4O)C3O)C2O)C1O (stereo not shown),,,human plasma,128 µg/mL,,thrombin time,9.2 s
Nc1nc2cc(CC[C@H]3C[C@@H](n4ccc5c(N)ncnc54)[C@H](O)[C@@H]3O)ccc2cc1Br,,,"NCI-H1048 xenograft, mouse","10.0 mg/kg/day, day 28",,tumour volume,32 ± 11 mm3
CNS(=O)(=O)Nc1nccc(Cc2c(C)c3ccc(Oc4ncccc4F)cc3oc2=O)c1F,LUDLU-1,cell viability,,7 days,,IC50,> 1 µM
COC1OC(C)C(O)C(OC2OC(C)C(O)C(OC3OC(C)C(O)C(OC4OC(C)C(O)C(OC5OC(C)C(O)C(OC6OC(C)C(O)C(OC7OC(C)C(O)C(OC8OC(C)C(O)C(OS(=O)(=O)O)C8OS(=O)(=O)O)C7OS(=O)(=O)O)C6OS(=O)(=O)O)C5OS(=O)(=O)O)C4OS(=O)(=O)O)C3OS(=O)(=O)O)C2OS(=O)(=O)O)C1OS(=O)(=O)O (stereo not shown),,,human plasma,128 µg/mL,,thrombin time,10.2 ± 0.4 s
COC1CN([C@H]2CC[C@H]([C@@]3(C)Oc4c(Cl)cc(C(=O)NCc5c(SC)cc(C)[nH]c5=O)c(C)c4O3)CC2)C1,,"RNA-seq, measured: CCM2L mouse homolog","mouse, HT-1376 xenograft, whole blood",dose not given,reference: vehicle,log2 fold change,0.0911
COc1ccc(C(=O)CCc2cc(C(CCc3ccc(O)cc3OC)c3ccc(O)cc3)c(O)cc2OC)cc1 (racemic),,,human blood,"30 µM, together with: A23187",,5-HETE level,4070 ± 1850 pg/mL
COC1OC(C)C(OC2OC(C)C(OS(=O)(=O)O)C(OC3OC(C)C(OC4OC(C)C(OS(=O)(=O)O)C(OC5OC(C)C(OC6OC(C)C(OS(=O)(=O)O)C(OC7OC(C)C(OS(=O)(=O)O)C(OS(=O)(=O)O)C7O)C6O)C(OS(=O)(=O)O)C5O)C4O)C(OS(=O)(=O)O)C3O)C2O)C(OS(=O)(=O)O)C1O (stereo not shown),,,human plasma,128 µg/mL,reference: control,thrombin time prolongation,1 fold
Cc1cn(-c2cc(NC(=O)c3cc(C#Cc4cnc5c(Nc6cnn(C)c6)cccn45)c(C)cc3F)cc(C(C)(C)C#N)c2)cn1,,platelet aggregation,platelet-rich plasma,"1 µM, DMSO 100, together with: collagen 2 mg/mL",,aggregation,74.5%
O=CCNCCOn1c(=O)n(OCCNCCO)c(=O)n(OCCNCCOn2c(=O)n(OCCNCCO)c(=O)n(OCCNCCO)c2=O)c1=O,,DPPH scavenging,,31.25 µg/mL,,inhibition,15%
COC1OC(C)C(OC2OC(C)C(OS(=O)(=O)O)C(OC3OC(C)C(OC4OC(C)C(OS(=O)(=O)O)C(OS(=O)(=O)O)C4OS(=O)(=O)O)C(OS(=O)(=O)O)C3OS(=O)(=O)O)C2OS(=O)(=O)O)C(OS(=O)(=O)O)C1OS(=O)(=O)O (stereo not shown),,,human plasma,128 µg/mL,reference: control,thrombin time prolongation,1 fold
CC(=O)[O-].O.O.O.O.[Ni+2].[O-]c1ccc(Br)cc1C=NCCN1CCOCC1,,hydroxyl radical scavenging,,160 µM,,inhibition,38.8%
COc1cc(O)ccc1CCC(c1ccc(O)cc1)c1cc2c(c(C)c1O)OC(c1ccc(O)cc1)CC2 (mixture of isomers),,measured: 15-HETE,human whole blood,"30 µM, together with: Escherichia coli",,amount,3440 ± 764 pg/mL blood
COC1OC(C)C(OS(=O)(=O)O)C(OC2OC(C)C(OS(=O)(=O)O)C(OC3OC(C)C(OS(=O)(=O)O)C(OC4OC(C)C(OS(=O)(=O)O)C(OC5OC(C)C(OS(=O)(=O)O)C(OC6OC(C)C(OS(=O)(=O)O)C(OC7OC(C)C(OS(=O)(=O)O)C(OC8OC(C)C(OS(=O)(=O)O)C(OC9OC(C)C(OS(=O)(=O)O)C(OC%10OC(C)C(OS(=O)(=O)O)C(OC%11OC(C)C(OS(=O)(=O)O)C(OS(=O)(=O)O)C%11O)C%10O)C9O)C8O)C7O)C6O)C5O)C4O)C3O)C2O)C1O (stereo not shown),,,human plasma,128 µg/mL,reference: control,thrombin time prolongation,1 fold
CN1CCC[C@]1(C)/C=C/S(=O)(=O)NC(=O)Nc1c2c(cc3c1CCC3)CCC2,,,"human, whole blood ex vivo","50 mg single dose, 24 h, single ascending dose, together with: LPS and ATP",,IL-18 inhibition,113%
Nc1ncc(-c2cc(-c3cnn(CC(F)(F)F)c3)ncc2F)nc1C(=O)NC1CNCC(F)C1 (stereo not shown),TAOK3,KINOMEscan,,1 µM,reference: DMSO control,remaining binding,50%
CC[C@H](C)[C@H](NC(=O)[C@H](Cc1ccc(O)cc1)NC(=O)[C@H](CCC(=O)O)NC(=O)CNC(=O)[C@H](CCC(=O)O)NC(=O)[C@H](CCCCN)NC(=O)[C@H](CCCCN)NC(=O)[C@H](CC(=O)O)NC(=O)[C@H](Cc1c[nH]cn1)NC(=O)[C@H](Cc1c[nH]cn1)NC(=O)[C@H](Cc1c[nH]cn1)NC(=O)[C@H](Cc1c[nH]cn1)NC(=O)[C@H](Cc1c[nH]cn1)NC(=O)[C@H](Cc1c[nH]cn1)NC(=O)[C@H](Cc1c[nH]cn1)NC(=O)[C@H](Cc1c[nH]cn1)NC(=O)[C@H](Cc1c[nH]cn1)NC(=O)[C@@H](N)Cc1c[nH]cn1)C(=O)N[C@@H](CCCCN)C(=O)N[C@@H](CC(C)C)C(=O)N[C@@H](CCCCN)C(=O)N[C@H](C(=O)N[C@H](C(=O)NCC(=O)N[C@@H](CCC(N)=O)C(=O)N[C@@H](CC(=O)O)C(=O)N[C@@H](CO)C(=O)N[C@@H](CO)C(=O)N[C@@H](CCC(=O)O)C(=O)N[C@H](C(=O)N[C@@H](Cc1c[nH]cn1)C(=O)N[C@@H](Cc1ccccc1)C(=O)N[C@@H](CCCCN)C(=O)N[C@H](C(=O)N[C@@H](CCCCN)C(=O)N[C@@H](CCSC)C(=O)N[C@H](C(=O)N[C@H](C(=O)N[C@@H](Cc1c[nH]cn1)C(=O)N[C@@H](CC(C)C)C(=O)N[C@@H](CCCCN)C(=O)N[C@@H](CCCCN)C(=O)N[C@@H](CC(C)C)C(=O)N[C@@H](CCCCN)C(=O)N[C@@H](CCC(=O)O)C(=O)N[C@@H](CO)C(=O)N[C@@H](Cc1ccc(O)cc1)C(=O)N[C@@H](CS)C(=O)N[C@@H](CCC(N)=O)C(=O)N[C@@H](CCCNC(=N)N)C(=O)N[C@@H](CCC(N)=O)C(=O)O)[C@@H](C)O)[C@@H](C)O)C(C)C)[C@@H](C)CC)[C@@H](C)CC)C(C)C,,,Drosophila α-synuclein A53T transgenic,"240 µM, 1 day post eclosion, unit not given",reference: untreated,climbing mean difference,0
C=CC(=O)Nc1cccc(Cn2ncc3cnc(Nc4cnn(CCOC)c4)nc32)c1,ULK3 human,"binding, KINOMEscan",,100 nM,lower = stronger binding,percent of control,77%
COC1OC(C)C(OS(=O)(=O)O)C(OC2OC(C)C(OS(=O)(=O)O)C(OC3OC(C)C(OS(=O)(=O)O)C(OC4OC(C)C(OS(=O)(=O)O)C(OC5OC(C)C(OS(=O)(=O)O)C(OC6OC(C)C(OS(=O)(=O)O)C(OC7OC(C)C(OS(=O)(=O)O)C(OS(=O)(=O)O)C7OS(=O)(=O)O)C6OS(=O)(=O)O)C5OS(=O)(=O)O)C4OS(=O)(=O)O)C3OS(=O)(=O)O)C2OS(=O)(=O)O)C1OS(=O)(=O)O (stereo not shown),,,human plasma,128 µg/mL,reference: control,thrombin time prolongation,1 fold
O=C(N[C@@H](Cc1ccc(OCCCCC2CCNCC2)cc1)C(=O)O)c1nc2ccccc2o1.O=C(O)C(F)(F)F,,"platelet aggregation, inhibitor, impedance aggregometry","human, whole blood, 1:1 saline","100 nM, 6 min, 37 °C, together with: ADP 20 µM",higher = more aggregation,aggregation impedance AUC,16 a.u. and 11.7 a.u. and 32.3 a.u. and 22.2 a.u.
Cc1nn(-c2cccc(N)c2)c(=O)c2cnc(Nc3ccc(N4CCNCC4)cc3)nc12,"SRPK3 (Homo sapiens, UniProt Q9UPE1)","kinase activity, inhibitor, SelectScreen kinase profiling",,,,IC50,> 10 µM
C=C(NC(=O)c1csc(-c2nc3c(cc2O)-c2nc(cs2)C(=O)NC(C(C)O)C(=O)NC(=C(C)OC)c2nc(cs2)C(=O)NC2c4nc(cs4)C(=O)NC(COC(=O)c4c5c6c(cccc6n4O)COC(=O)C(OC4CC(C)(O)C(N(C)C)C(C)O4)C2OC5)c2nc-3cs2)n1)C(N)=O (stereo not shown),,,"cynomolgus monkey, plasma","intravenous, infusion",,half-life,5.5 h

# A few entries again:
Compound,tested on,test,system,setting,scale,measurement,value
Cc1cn(-c2cc(NC(=O)c3cc(C#Cc4cnc5c(Nc6cnn(C)c6)cccn45)c(C)cc3F)cc(C(C)(C)C#N)c2)cn1,,platelet aggregation,platelet-rich plasma,"1 µM, DMSO 100, together with: collagen 2 mg/mL",,aggregation,74.5%
O=CCNCCOn1c(=O)n(OCCNCCO)c(=O)n(OCCNCCOn2c(=O)n(OCCNCCO)c(=O)n(OCCNCCO)c2=O)c1=O,,DPPH scavenging,,31.25 µg/mL,,inhibition,15%
